Earlier results that unrelated publications cite.
Lines come from different studies, so protocols differ. Several values in a cell are separate wells, animals, samples, runs or records. Numbers after ± are the reported error.
UniProt P08909, sequence (whole entry, looked up): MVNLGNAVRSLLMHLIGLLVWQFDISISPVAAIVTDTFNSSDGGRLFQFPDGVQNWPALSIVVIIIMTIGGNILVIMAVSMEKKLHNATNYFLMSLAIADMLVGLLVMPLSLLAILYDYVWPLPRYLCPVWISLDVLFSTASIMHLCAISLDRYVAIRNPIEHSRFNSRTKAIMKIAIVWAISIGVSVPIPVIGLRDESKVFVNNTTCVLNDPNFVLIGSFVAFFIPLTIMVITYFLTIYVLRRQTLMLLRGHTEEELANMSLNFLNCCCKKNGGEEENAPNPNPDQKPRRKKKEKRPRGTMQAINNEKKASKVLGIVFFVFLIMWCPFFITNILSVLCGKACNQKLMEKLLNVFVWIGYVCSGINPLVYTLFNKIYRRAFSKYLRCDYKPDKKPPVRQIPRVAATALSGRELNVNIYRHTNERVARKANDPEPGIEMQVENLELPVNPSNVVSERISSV
UniProt P33534, sequence (whole entry, looked up): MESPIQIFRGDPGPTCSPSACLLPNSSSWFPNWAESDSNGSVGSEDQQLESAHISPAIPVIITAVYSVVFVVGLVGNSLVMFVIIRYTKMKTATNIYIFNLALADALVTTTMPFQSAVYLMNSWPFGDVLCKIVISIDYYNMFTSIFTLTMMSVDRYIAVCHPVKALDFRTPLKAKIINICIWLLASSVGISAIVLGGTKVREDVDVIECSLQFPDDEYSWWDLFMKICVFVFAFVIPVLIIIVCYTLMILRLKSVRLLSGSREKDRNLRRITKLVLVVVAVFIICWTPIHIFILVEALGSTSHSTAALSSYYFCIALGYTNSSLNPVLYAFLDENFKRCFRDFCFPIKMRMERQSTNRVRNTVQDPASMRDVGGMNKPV
UniProt Q91XE4, sequence (whole entry, looked up): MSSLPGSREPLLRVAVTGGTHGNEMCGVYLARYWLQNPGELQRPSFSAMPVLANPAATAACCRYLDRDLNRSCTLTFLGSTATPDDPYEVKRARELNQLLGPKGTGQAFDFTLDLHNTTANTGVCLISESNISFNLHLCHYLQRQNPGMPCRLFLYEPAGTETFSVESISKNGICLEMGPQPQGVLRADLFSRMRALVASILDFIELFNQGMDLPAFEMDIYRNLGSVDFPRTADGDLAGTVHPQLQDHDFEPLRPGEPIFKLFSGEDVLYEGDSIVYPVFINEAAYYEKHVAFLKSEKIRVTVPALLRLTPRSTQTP

Compound | tested on | assay | test system | conditions | quantity | value
CC1(C)NC(=O)N(c2ccc(F)c(C(F)(F)F)c2)C1=O | Schistosoma mansoni |  | adult, mouse |  | ED50 | 15 mg/kg
COc1cc(C[C@@H](C)N)c(OC)cc1I | 5-hydroxytryptamine receptor 2C (Rattus norvegicus, UniProt P08909) | agonist |  |  | EC50 | 30.2 nM
NCC1C=Nc2nc(N)[nH]c(=O)c21 (stereo not drawn) | class I riboswitch, Can |  |  | first of two cooperative sites | Kd | 891 nM
Cc1c(C(=O)NN2CCCCC2)nc(-c2ccc(Cl)cc2Cl)n1-c1ccc(F)cc1 | CB1 receptor | binding |  |  | Ki | 52 nM
O=C(NC1C=C[C@H]2[C@H]3Cc4ccc(O)c5c4[C@@]2(CCN3CC2CC2)C1O5)c1cccc(I)c1 (stereo partly drawn) | Oprk1 (Mus musculus, UniProt P33534) |  |  |  | EC50 | 0.027 ± 0.002 nM
O=C(O)CC(=O)C(=O)O | Thermoplasma acidophilum citrate synthase W348Y | fluorescence titration |  | 20 °C, unliganded enzyme | Kd | 900 nM
CCCCCOc1ccc(-c2ccc(-c3ccc(C(=O)N[C@H]4C[C@@H](O)[C@@H](O)NC(=O)[C@@H]5[C@@H](O)[C@@H](C)CN5C(=O)[C@H]([C@@H](C)O)NC(=O)[C@H]([C@H](O)[C@@H](O)c5ccc(O)cc5)NC(=O)[C@@H]5C[C@@H](O)CN5C(=O)[C@H]([C@@H](C)O)NC4=O)cc3)cc2)cc1 |  |  | human, haematological patients | dose not given, typical value | peripheral volume of distribution | 23.1 L
O=C(NC(=O)c1c(F)cccc1F)Nc1cc(Cl)c(OC(F)(F)C(F)F)c(Cl)c1 | CYP2C9 | inhibitor |  | Tox21 screening | IC50 | 28500 ± 13100 nM
CCS(=O)(=O)n1c2c(c3cc(C(=O)N4CCC(F)CC4)ccc31)CN(C1CCCC1)C2 | CB2 receptor | binding |  |  | Ki | 44.2 nM
CC(NC(C)(C)C)C(=O)c1cccc(Cl)c1 (stereo not drawn) | serotonin 5-HT3AB receptor | antagonist |  |  | IC50 | 840000 nM
COC(=O)[C@@H]1C[C@H](OC(C)=O)C(=O)[C@H]2[C@@]1(C)CC[C@H]1C(=O)O[C@H](c3ccoc3)C[C@]21C | kappa opioid receptor D138A |  |  |  | Ki | 17.5 ± 4.4 nM
CC(=O)N[C@@H](CSC(Cl)=CCl)C(=O)O | N-acyl-aromatic-L-amino acid amidohydrolase (carboxylate-forming) (Acy3, Mus musculus, UniProt Q91XE4) | substrate |  | without Co2+ | Km | 450 µM
N[C@H]1C[C@H]1c1ccccc1 | tyramine oxidase (Arthrobacter sp.) | enzyme activity, inhibitor |  | pH 7.2, literature data, together with: benzylamine 0.6 mM substrate | IC50 | 33000 nM and 35000 nM
FC(F)OC(F)(F)C(F)Cl (stereo not drawn) | CYP3A4 | inhibitor |  | Tox21 screening | IC50 | inactive
CCc1c(C(=O)NN2CCCCC2)nc(-c2ccc(Cl)cc2Cl)n1-c1ccc(Cl)cc1 | CB2 receptor | binding |  |  | Ki | 608 nM

Excerpt of the above:
Compound | tested on | assay | test system | conditions | quantity | value
O=C(NC1C=C[C@H]2[C@H]3Cc4ccc(O)c5c4[C@@]2(CCN3CC2CC2)C1O5)c1cccc(I)c1 (stereo partly drawn) | Oprk1 (Mus musculus, UniProt P33534) |  |  |  | EC50 | 0.027 ± 0.002 nM
O=C(O)CC(=O)C(=O)O | Thermoplasma acidophilum citrate synthase W348Y | fluorescence titration |  | 20 °C, unliganded enzyme | Kd | 900 nM
